Results collected from several papers.
Numbered parts are unrelated; each lists some results of a single study.
Chain of UniProt Q9P1W9 (whole entry, looked up): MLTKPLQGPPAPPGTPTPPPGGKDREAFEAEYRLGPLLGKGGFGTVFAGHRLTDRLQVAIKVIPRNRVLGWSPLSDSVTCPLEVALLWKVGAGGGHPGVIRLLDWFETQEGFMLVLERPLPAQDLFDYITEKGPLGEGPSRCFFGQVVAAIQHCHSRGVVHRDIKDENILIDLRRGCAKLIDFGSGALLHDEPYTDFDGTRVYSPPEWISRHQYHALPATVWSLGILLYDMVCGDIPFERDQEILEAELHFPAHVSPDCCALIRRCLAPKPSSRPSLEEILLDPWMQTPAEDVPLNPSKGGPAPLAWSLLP
Chain of UniProt Q7KZI7 (whole entry, looked up): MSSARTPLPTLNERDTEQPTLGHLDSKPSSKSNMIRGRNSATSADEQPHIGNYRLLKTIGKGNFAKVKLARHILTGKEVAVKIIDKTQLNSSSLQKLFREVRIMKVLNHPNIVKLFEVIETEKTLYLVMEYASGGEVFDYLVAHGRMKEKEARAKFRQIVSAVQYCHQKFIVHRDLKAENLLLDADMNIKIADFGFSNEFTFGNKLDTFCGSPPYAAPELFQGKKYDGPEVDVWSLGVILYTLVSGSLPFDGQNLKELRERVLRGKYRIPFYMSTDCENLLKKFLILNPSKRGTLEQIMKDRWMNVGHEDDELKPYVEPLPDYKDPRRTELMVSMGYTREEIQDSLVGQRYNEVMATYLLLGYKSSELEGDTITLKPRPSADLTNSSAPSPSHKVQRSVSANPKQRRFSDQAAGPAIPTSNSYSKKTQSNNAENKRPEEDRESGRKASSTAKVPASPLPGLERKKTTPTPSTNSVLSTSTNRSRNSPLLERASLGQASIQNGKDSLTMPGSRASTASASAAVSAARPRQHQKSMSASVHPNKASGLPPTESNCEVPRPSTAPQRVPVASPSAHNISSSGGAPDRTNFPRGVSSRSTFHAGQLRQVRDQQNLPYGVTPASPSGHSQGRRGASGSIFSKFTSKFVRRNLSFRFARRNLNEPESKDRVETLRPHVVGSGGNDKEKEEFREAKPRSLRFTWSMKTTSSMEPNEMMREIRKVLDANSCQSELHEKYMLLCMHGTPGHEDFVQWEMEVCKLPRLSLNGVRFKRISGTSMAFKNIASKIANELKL
Chain of UniProt Q9Y3S1 (whole entry, looked up): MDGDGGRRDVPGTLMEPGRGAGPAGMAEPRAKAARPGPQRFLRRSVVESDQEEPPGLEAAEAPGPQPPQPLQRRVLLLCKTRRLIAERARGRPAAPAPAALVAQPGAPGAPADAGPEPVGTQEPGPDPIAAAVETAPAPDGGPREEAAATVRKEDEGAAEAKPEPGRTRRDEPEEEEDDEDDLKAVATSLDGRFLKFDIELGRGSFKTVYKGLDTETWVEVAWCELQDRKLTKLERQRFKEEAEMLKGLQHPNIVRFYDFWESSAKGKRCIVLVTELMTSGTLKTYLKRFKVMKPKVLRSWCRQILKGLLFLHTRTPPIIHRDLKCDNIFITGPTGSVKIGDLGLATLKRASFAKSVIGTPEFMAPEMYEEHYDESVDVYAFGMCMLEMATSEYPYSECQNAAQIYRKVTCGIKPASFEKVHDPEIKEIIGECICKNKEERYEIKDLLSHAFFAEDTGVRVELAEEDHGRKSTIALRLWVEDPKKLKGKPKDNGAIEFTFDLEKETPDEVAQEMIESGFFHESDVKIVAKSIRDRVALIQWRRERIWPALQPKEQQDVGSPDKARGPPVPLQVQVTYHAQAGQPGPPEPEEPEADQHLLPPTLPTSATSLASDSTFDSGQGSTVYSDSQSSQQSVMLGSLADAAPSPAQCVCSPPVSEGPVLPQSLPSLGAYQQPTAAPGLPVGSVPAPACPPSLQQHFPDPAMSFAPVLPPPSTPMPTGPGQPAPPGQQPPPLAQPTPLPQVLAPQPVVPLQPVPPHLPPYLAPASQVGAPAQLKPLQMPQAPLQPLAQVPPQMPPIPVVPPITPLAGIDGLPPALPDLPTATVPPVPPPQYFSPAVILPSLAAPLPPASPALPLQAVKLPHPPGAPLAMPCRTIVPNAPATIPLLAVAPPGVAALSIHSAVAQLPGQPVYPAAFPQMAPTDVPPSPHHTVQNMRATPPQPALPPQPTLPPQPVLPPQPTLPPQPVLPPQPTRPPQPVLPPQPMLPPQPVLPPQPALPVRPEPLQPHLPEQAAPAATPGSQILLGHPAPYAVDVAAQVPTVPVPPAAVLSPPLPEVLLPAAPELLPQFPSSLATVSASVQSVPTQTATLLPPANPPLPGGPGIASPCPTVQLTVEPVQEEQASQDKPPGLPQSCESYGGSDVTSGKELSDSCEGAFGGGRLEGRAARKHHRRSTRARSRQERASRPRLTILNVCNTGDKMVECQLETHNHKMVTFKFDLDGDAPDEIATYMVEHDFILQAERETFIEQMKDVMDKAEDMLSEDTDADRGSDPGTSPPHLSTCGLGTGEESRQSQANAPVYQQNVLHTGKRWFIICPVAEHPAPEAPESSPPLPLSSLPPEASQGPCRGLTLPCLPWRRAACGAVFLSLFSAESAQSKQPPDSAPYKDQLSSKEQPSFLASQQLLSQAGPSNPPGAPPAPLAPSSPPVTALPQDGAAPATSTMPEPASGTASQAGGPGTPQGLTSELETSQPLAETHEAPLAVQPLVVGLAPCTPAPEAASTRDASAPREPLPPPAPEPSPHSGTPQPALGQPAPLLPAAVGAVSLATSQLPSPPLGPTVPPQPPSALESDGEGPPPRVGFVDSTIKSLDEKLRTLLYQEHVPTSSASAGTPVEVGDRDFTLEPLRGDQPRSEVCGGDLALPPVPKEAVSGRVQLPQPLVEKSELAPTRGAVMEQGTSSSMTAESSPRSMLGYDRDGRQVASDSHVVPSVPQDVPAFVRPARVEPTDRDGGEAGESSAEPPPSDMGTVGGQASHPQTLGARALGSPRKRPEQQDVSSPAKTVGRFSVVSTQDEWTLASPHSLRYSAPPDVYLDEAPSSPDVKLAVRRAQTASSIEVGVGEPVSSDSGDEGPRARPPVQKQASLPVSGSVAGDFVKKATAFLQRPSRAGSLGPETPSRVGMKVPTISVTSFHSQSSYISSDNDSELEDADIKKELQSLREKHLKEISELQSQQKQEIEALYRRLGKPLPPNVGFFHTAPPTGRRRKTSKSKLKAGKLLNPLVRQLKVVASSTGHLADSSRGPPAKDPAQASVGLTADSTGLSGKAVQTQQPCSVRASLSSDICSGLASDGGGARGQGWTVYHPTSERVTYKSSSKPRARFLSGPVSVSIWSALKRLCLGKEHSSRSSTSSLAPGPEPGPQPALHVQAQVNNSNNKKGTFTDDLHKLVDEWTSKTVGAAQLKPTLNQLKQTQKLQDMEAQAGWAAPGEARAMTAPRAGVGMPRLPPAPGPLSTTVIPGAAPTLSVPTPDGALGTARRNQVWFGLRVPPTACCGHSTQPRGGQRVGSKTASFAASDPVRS
Chain of UniProt Q8TD08 (whole entry, looked up): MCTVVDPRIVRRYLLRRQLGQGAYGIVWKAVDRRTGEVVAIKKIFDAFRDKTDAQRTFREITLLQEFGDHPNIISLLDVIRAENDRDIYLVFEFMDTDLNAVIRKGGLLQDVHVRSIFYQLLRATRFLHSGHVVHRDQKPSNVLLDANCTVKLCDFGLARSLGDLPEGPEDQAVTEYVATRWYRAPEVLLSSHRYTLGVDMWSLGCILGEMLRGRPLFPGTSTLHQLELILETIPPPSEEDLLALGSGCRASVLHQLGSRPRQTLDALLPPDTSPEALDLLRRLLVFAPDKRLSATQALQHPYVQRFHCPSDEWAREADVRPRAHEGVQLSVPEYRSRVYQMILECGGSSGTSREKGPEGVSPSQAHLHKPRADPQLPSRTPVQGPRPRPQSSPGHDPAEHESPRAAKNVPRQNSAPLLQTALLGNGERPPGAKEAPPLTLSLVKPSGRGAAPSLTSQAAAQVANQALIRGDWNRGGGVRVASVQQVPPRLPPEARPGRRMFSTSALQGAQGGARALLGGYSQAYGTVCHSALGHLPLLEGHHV
Chain of UniProt Q15418 (whole entry, looked up): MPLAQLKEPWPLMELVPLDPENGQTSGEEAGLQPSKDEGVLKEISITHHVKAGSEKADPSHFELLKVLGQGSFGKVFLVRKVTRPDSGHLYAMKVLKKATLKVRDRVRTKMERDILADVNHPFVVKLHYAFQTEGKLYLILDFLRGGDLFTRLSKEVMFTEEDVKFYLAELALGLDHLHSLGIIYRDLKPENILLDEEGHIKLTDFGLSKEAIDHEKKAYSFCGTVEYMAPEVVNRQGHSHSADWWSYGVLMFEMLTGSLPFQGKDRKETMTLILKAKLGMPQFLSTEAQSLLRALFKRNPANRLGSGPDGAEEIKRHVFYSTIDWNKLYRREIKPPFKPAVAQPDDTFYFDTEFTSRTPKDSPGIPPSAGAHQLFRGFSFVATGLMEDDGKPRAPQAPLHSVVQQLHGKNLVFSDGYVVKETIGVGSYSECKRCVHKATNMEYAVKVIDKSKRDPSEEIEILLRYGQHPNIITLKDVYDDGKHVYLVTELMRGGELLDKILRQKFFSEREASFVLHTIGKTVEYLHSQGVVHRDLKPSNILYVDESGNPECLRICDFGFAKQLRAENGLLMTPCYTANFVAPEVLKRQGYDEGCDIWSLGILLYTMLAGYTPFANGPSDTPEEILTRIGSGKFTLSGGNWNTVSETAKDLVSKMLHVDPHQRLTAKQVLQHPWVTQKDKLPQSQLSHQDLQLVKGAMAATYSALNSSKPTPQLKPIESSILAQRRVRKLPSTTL
Chain of UniProt P15735 (whole entry, looked up): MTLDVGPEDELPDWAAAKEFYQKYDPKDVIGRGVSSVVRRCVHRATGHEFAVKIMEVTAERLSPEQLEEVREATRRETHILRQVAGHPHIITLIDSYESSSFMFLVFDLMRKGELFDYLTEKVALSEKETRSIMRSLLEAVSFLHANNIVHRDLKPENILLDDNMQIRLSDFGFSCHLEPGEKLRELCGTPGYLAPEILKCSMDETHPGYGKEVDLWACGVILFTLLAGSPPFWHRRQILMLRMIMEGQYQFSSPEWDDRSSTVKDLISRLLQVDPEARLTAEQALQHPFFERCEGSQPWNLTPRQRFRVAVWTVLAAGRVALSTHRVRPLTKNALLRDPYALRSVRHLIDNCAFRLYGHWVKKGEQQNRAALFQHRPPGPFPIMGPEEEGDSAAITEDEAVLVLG

Study 1 — cell line: HaCaT; concentration: 100 µM; time: 36 h
SMILES	viability
Cc1nnc(NS(=O)(=O)c2ccc(N)cc2)s1	81.8%
COc1cnc(NS(=O)(=O)c2ccc(N)cc2)nc1	77.5%
OC[C@H]1O[C@@H](Oc2ccc(O)cc2)[C@H](O)[C@@H](O)[C@@H]1O	110%

Study 2 — method: phase 2a trial; species: idiopathic pulmonary fibrosis patients
Structure (SMILES): CC(C)n1cnc(-c2ccc(F)cc2)c1-c1ncc(C(=O)Nc2ccc(N3CCN(C)CC3)cc2)[nH]1
dose	notes	patients with anaemia
60 mg once daily	adverse event grade 3	0%
30 mg once daily	adverse event grade 5	0%
dose not given	adverse event grade 4, all dose arms pooled	0%

Study 3 — species: human; sample: microsomes or S9; concentration: 2 µM; time: 0.5 h
Compound	remaining compound [%]
CC(C)(C)c1cc(SCC(=O)O)cc(C(C)(C)C)c1O	> 99
CNC(=O)c1cc(Cl)cc(C)c1NC(=O)c1cc(Br)nn1-c1c(F)c(F)cc(F)c1F	83
O=C(Nc1nc2ncc(Br)nc2s1)c1ccc(Cl)cc1	20.5
COC(=O)[C@@H]1C[C@H](C(=O)OC)CN(c2ccnc(N3C[C@H](C(=O)OC)C[C@H](C(=O)OC)C3)n2)C1	52.2
COC(=O)C1(NC(=O)c2ccc(CN3CC(C)OC(C)C3)cc2)CCS(=O)(=O)CC1 (centres unmarked)	> 100

Study 4 — method: competition with immobilised ligand; concentration: 1 µM
Compound: CCOCCn1cc(C(=O)Nc2ccc(-n3nc(-c4cccnc4)cc3C(F)(F)F)cn2)ccc1=O
target	observed	remaining binding
PIM2 (Homo sapiens, UniProt Q9P1W9)	cell-free assay	100%
MAP2K5 (Homo sapiens, UniProt Q13163)	cell-free assay	84%
EPHB4 (Homo sapiens, UniProt P54760)	cell-free assay	100%
Tyrosine-protein kinase ABL1, phosphorylated (ABL1, Homo sapiens, UniProt P00519, E255K)	binding	69%
AKT3 (Homo sapiens, UniProt Q9Y243)	cell-free assay	100%
Ribosomal protein S6 kinase alpha-1, C-terminal kinase domain (RPS6KA1, Homo sapiens, UniProt Q15418)	cell-free assay	100%
WNK2 (Homo sapiens, UniProt Q9Y3S1)	cell-free assay	64%
HUNK (Homo sapiens, UniProt P57058)	cell-free assay	93%
MAP3K9 (Homo sapiens, UniProt P80192)	cell-free assay	93%
MAPK15 (Homo sapiens, UniProt Q8TD08)	cell-free assay	100%
ULK3 (Homo sapiens, UniProt Q6PHR2)	cell-free assay	61%
Ribosomal protein S6 kinase alpha-5, N-terminal kinase domain (RPS6KA5, Homo sapiens, UniProt O75582)	cell-free assay	100%
LCK (Homo sapiens, UniProt P06239)	cell-free assay	100%
PHKG1 (Homo sapiens, UniProt Q16816)	cell-free assay	100%
MARK2 (Homo sapiens, UniProt Q7KZI7)	cell-free assay	100%
PHKG2 (Homo sapiens, UniProt P15735)	cell-free assay	100%

Study 5 — cell line: mouse MPNST tumor cells; method: high-content nuclear imaging; item: cell number; concentration: 10 µM; time: 12 h; notes: mean of 2 replicates; reference: plate mean; reading: higher = more cells
Structure (SMILES)	nuclei count
CNC(=O)c1ccccc1Sc1ccc2c(/C=C/c3ccccn3)n[nH]c2c1	-2.49 z-score
CCC(NC(C)C)C(O)c1ccc(O)c(O)c1 (centres unmarked)	0.343 z-score
CN(C(=O)CN(CCO)CC(=O)N(C)C(C)(C)Cc1ccccc1)C(C)(C)Cc1ccccc1	1.66 z-score
CC[C@@H]([C@H](C)O)n1ncn(-c2ccc(N3CCN(c4ccc(OC[C@@H]5CO[C@@](Cn6cncn6)(c6ccc(F)cc6F)C5)cc4)CC3)cc2)c1=O	-4.06 z-score

Mixed results
Structure (SMILES)	item	species	sample	dose	time	measurement	value
COc1ccc(-c2c(Nc3ccccn3)[nH]c3c(C4=CCCCC4)c(-c4ccccc4)nn3c2=O)cc1	S-adenosylmethionine	human patients	plasma	150 mg once daily	8 h	median concentration	18.3 ng/mL

Excerpt of the above (study 5):
Structure (SMILES)	nuclei count
CCC(NC(C)C)C(O)c1ccc(O)c(O)c1 (centres unmarked)	0.343 z-score
CC[C@@H]([C@H](C)O)n1ncn(-c2ccc(N3CCN(c4ccc(OC[C@@H]5CO[C@@](Cn6cncn6)(c6ccc(F)cc6F)C5)cc4)CC3)cc2)c1=O	-4.06 z-score
